Measurements from different studies.
Every numbered part comes from another study and shows a few of its results, in no order. Changes are numbered by the printed parent chain.

Set 1 — target: CCNB1, cyclin fold, Cln2 fusion (human); method: yeast growth competition, sequencing; medium: yeast; notes: weak parent motif; baseline: not given; reading: higher = stronger binding; starting sequence: viral docking peptide; KKVKRRLFETREL
Change	normalised enrichment score
R6A	0.635
E12A	0.373
L7A	0.428

Set 2 — method: RNAcompete; molecule type: RNA; medium: in vitro; tested at: 20 nM; notes: 7-mer, probes averaged, single round; baseline: mean of 7-mers; reading: higher = stronger binding
Target: PABPC1L2, full length, GST fusion (mouse, UniProt A0ABA7IW68)
Construct (chain): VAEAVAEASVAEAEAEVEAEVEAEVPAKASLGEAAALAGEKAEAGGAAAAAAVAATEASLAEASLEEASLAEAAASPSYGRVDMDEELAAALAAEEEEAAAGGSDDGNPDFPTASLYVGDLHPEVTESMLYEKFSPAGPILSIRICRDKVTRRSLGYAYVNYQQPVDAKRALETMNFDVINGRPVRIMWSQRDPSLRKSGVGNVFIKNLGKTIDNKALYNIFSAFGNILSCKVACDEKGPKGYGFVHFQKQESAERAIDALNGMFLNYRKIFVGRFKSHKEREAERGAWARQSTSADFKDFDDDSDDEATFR
Oligonucleotide	7-mer Z-score
CUGAGUG	-0.0718
ACGUCAC	-0.228
CCUACUC	-0.322
GAUUUCU	-0.358
GCUGCAU	-0.124
AUUCAGC	-0.135
GCCAACG	-0.0391
CUAGGCA	-0.191

Set 3 — method: RNA Bind-n-Seq; molecule type: RNA; medium: in vitro; tested at: not given; notes: RNA with constant flanks, ends assumed; baseline: input RNA pool; reading: higher = stronger binding
Target: RING finger protein unkempt homolog, zinc fingers 1-6, GST-SBP tag (UNK, Homo sapiens, UniProt Q9C0B0, residues 30-357)
Chain of UniProt Q9C0B0 (30-357, looked up): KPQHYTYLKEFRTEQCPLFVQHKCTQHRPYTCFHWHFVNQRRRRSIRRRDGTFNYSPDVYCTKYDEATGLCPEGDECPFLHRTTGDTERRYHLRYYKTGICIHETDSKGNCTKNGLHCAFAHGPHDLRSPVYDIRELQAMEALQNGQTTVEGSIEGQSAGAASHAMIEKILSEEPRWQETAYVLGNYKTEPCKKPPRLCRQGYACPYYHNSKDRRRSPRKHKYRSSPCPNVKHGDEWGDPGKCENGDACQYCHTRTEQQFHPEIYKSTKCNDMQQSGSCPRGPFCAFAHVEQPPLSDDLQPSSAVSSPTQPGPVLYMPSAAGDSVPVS
All sequences stand within: GGGAGUUCUACAGUCCGACGAUC … CAACAGAGGAUUGAGCAUCA
Oligonucleotide	bound/input enrichment
UUUAAGACUUUAUAUUGCUUUUCAAACAAAGAAAGCCCUAACCAAAACAAUACUACCCACUCCGAUAUUGCUGCAGUUCAAGGUUUUUCAGUCAUCUUGGACUUCUUGUAUUCUGGUAAC	0.226 ratio
UGGAGGGGAAUCCUAUUAUUUGGGCCGCCUGGAACAGGAAAGUCCUACUUAGCCAAAGCUGCCGCAACAGAAGCCAACAACUCAACAUUUUUUUCAAUAUCUUCCUCUGAUCUUGUUUCU	2.16 ratio
UUCCAUUUAGCUUACAUGUAAAUGUAAUUAUUUAAAACACACACACUGCUCUGCGUUGUACCGUUUUUCCUUUUUUGUAUGUAACAGAACACAUUUCAGAUUGUAUUUAAUUUAAAUAUU	8.18 ratio
AAAGCCAUCUUUUCCACAUUUUCUGUAAAUAAUGGAUAAUCAUUUUAAAAAUUUUUAUUUUCCGUGCUGUUUUAACAAUGUAGAUAGAUCAUAAAUGUACUUGCUGAAUUCAAUCAUUUU	2.49 ratio
AAUCAGUUUGAGACAGAAUUAUGAAUAGAGAUCUAUCAGUAACUUUUGCAUUUCACACCACCGCCCGAGUUUGGCUCACCAAUAACUUGUAUAUAUUUUGAAUGGGAAACACAUGGGUGC	0.749 ratio
GGAAUUCAACCUGUUAUAGAUAAAUUAAGGGAACAUGAAAAUUCAACACUAGACAGGCAUUCCGACUUUUUUGAAAUGCUCCGAAAUGAAGAUGAACUAGAAUUUGCCAAAAGAUUUGAA	0.511 ratio
AACUCAAACCCAGCCCUCAAUGACAACCUAGAGAAGGGACUCCUGAAAGCCCUGAAGGUUCCCGACAAUUACCUGACAUCCCCCCUCCCAGAAGAAGUGGAUGAAACCAGCGCCGAAGAU	0.53 ratio
AUCUCCGCUAUGAACAAGGUGGCUGAAGUUUUACAAGUACCUCCAAUGAGAGUAUAUGAAGCCGCAACUUUUUAUACAAUGUAUAAUCGAAAGCCAGUUGGGAAGUACCAUAUCCAGGUC	0.12 ratio

Single results of other studies
Molecule	target	assay	test system	setting	quantity	result
GRYNLVPPK	HLA class I histocompatibility antigen, A alpha chain, allele A*25:01 (Homo sapiens, UniProt P04439)	peptide-MHC binding	peptide	concentration not given	binding	inactive

A few entries again (single results of other studies):
Molecule	target	assay	test system	setting	quantity	result
GRYNLVPPK	HLA class I histocompatibility antigen, A alpha chain, allele A*25:01 (Homo sapiens, UniProt P04439)	peptide-MHC binding	peptide	concentration not given	binding	inactive
